# Published values collected from several papers.
# Each line is one published result; not all experiments were run side by side. Several values in a cell are separate wells, animals, samples, runs or records. ± marks the error that the study gave.
# CYP1A2: Cytochrome P450 1A2 (CYP1A2, Homo sapiens, UniProt P05177)
# UniProt Q96FL8, sequence (whole entry, looked up): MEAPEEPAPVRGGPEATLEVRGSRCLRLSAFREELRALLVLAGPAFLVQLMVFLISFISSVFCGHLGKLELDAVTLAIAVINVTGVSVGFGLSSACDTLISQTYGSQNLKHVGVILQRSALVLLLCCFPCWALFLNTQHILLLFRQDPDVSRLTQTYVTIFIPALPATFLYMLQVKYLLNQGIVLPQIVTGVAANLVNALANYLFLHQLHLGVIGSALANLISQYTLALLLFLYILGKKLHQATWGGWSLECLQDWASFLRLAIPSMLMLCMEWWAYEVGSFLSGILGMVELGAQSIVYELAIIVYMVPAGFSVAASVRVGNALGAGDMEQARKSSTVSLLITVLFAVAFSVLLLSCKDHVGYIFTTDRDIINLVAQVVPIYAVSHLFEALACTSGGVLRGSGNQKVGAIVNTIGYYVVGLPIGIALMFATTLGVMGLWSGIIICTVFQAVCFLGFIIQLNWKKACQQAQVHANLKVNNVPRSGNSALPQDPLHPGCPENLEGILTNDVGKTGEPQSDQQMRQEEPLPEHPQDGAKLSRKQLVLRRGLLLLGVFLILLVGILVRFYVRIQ
# UniProt P05181, sequence (whole entry, looked up): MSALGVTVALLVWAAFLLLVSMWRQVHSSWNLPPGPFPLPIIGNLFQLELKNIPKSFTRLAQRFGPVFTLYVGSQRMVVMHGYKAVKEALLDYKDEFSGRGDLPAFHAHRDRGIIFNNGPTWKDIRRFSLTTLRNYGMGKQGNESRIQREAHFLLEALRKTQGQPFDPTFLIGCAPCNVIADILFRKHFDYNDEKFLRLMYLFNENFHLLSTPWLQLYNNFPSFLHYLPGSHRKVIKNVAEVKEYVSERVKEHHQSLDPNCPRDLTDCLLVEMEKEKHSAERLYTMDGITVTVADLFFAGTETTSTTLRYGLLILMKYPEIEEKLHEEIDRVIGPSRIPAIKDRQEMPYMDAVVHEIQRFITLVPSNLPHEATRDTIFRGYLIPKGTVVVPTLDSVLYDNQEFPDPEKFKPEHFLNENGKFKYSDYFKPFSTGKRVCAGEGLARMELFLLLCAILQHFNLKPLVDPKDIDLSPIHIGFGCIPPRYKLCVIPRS
Compound,tested on,assay,test system,conditions,scale,endpoint,result
CC[C@H](C)[C@H](NC(=O)[C@H](CCCCN)NC(=O)[C@H](CCCCN)NC(=O)[C@H](Cc1ccccc1)NC(=O)[C@H](Cc1ccccc1)NC(=O)[C@H](CCCCN)NC(=O)[C@H](CCCCN)NC(=O)[C@H](Cc1ccccc1)NC(=O)[C@H](CCCNC(=N)N)NC(=O)[C@@H](N)CCCCN)C(=O)N[C@@H](CCCCN)C(=O)N[C@@H](CCCCN)C(=O)N[C@@H](CO)C(=O)N[C@H](C(=O)N[C@@H](CCCCN)C(=O)N[C@@H](CCCCN)C(=O)N[C@@H](CCCNC(=N)N)C(=O)N[C@H](C(=O)N[C@@H](CCCCN)C(=O)N[C@@H](CCCCN)C(=O)N[C@@H](CC(C)C)C(=O)N[C@@H](Cc1ccccc1)C(=O)N[C@@H](CCCCN)C(=O)N[C@@H](CCCCN)C(=O)N1CCC[C@H]1C(=O)N[C@@H](CCCNC(=N)N)C(=O)N[C@H](C(=O)N[C@H](C(=O)N1CCC[C@H]1C(=O)N[C@H](C(=O)N[C@@H](CO)C(=O)N[C@H](C(=O)N1CCC[C@H]1C(=O)N[C@@H](Cc1ccccc1)C(=O)O)[C@@H](C)CC)[C@@H](C)CC)[C@@H](C)CC)C(C)C)C(C)C)C(C)C,Escherichia coli,MIC after serum incubation,E24,"1 h, 37 °C, added: 25% mouse serum",,MIC,8 µg/mL
Cc1sc2c(c1C)C(c1ccc(Cl)cc1)=N[C@@H](CC(=O)OC(C)(C)C)c1nnc(C)n1-2,,,"CD1 mouse, male, plasma","oral, 10 mg/kg",,half-life,1.39 h
CN1CC[C@]23c4c5ccc(O)c4O[C@H]2[C@H](O)CC[C@@]3(O)[C@H]1C5,,,,phenolate protonated,,log k amino protonation,9.55
C[C@H]1[C@@H](OCc2cn(-c3cc4ccc(O)cc4oc3=O)nn2)O[C@@H]2O[C@@]3(C)CC[C@H]4[C@H](C)CC[C@@H]1[C@@]24OO3,Plasmodium berghei,"flow cytometry, refers to: compound uptake in uninfected red cells",uninfected mouse red blood cells,"3 µM, 1 h, added: dihydroartemisinin added 30 min before",,uptake inhibition,71.5%
CN1CC[C@]23c4c5ccc(O)c4O[C@H]2[C@H](O)C=C[C@H]3[C@H]1C5,,,,,,log tautomerization constant,-0.32
Cc1nc2cccc(OCC(C)(C)C(=O)NC(C)C)c2c(N)c1C(=O)[O-].[Na+],Salmonella typhimurium,,TA100,"2.0 mg per plate, with S9, plate incorporation",,revertant colonies per plate,111 ± 5
COc1ccc(-n2cc(C(=O)N3C[C@]4(OC(=O)c5ccccc5NC(C)=O)CC[C@H](OC)[C@@]56[C@@H]4C[C@@H]([C@@H]35)[C@@]3(O)C[C@H](OC)[C@H]4C[C@@H]6[C@]3(O)[C@H]4OC)nn2)cc1,,,"Sprague-Dawley rat, plasma","intravenous, 2 mg/kg, 1 h",,concentration,13.8 ng/mL
CC(C)C[C@H](NC(=O)[C@H](CC(C)C)NC(=O)[C@H](CCCCN)NC(=O)[C@H](Cc1ccccc1)NC(=O)[C@@H](NC(=O)[C@H](CCCNC(=N)N)NC(=O)[C@@H](N)CCCCN)C(C)C)C(=O)N[C@@H](CCCCN)C(=O)N[C@@H](CCCNC(=N)N)C(=O)N[C@@H](Cc1ccc(O)cc1)C(=O)N[C@@H](Cc1c[nH]c2ccccc12)C(=O)N[C@@H](CCCNC(=N)N)C(=O)N[C@@H](CCC(N)=O)C(=O)N[C@@H](CC(C)C)C(=O)N[C@@H](CCCCN)C(=O)N[C@@H](CCCCN)C(=O)N1CCC[C@H]1C(=O)N[C@H](C(=O)N[C@@H](CCCNC(=N)N)C(=O)NCCOCCOCC(=O)O)C(C)C,Pseudomonas aeruginosa,,,"6 h, 37 °C, serum stability, added: 50% human serum",baseline: without serum,MIC increase,8.5 fold
CN1CC[C@]23c4c5ccc(O)c4O[C@H]2[C@H](O)C=C[C@@]3(O)[C@H]1C5,,,,phenolate site,,log k protonation constant,9.3
C[C@H]1[C@H](OC(=O)CCC(=O)OCc2nnn(-c3cc4ccc(O)cc4oc3=O)c2COC(=O)CCC(=O)O[C@@H]2O[C@@H]3O[C@@]4(C)CC[C@H]5[C@H](C)CC[C@@H]([C@H]2C)[C@@]35OO4)O[C@@H]2O[C@@]3(C)CC[C@H]4[C@H](C)CC[C@@H]1[C@@]24OO3,Plasmodium berghei,flow cytometry,infected mouse blood,"3 µM, 1 h",,uptake into uninfected RBC,3.1 ± 2 % stained cells
CC(=O)NCCCC[C@@H]1NC(=O)[C@H](Cc2c[nH]c3c(C)cccc23)NC(=O)[C@H]([C@@H](C)O)NC(=O)[C@H](CC(N)=O)NC(=O)[C@@H](NC(C)=O)C(C)(C)SSC(C)(C)[C@@H](C(=O)N[C@@H](Cc2ccc(OCCN)cc2)C(=O)N[C@@H](Cc2ccc3ccccc3c2)C(=O)NC2(C(=O)N[C@@H](CCC(=O)O)C(=O)N[C@@H](CC(N)=O)C(=O)N[C@@H](Cc3cccnc3)C(=O)N(C)CC(N)=O)CCOCC2)NC1=O,"Multidrug and toxin extrusion protein 1 (SLC47A1, Homo sapiens, UniProt Q96FL8)",substrate,MDCK-II overexpressing transporter,"5 µM, 30 min",,uptake rate,0.154 ± 0.004 pmol/mg/min
CC[C@H](C)[C@H](NC(=O)[C@H](CCCCN)NC(=O)CNC(=O)[C@H](CC(C)C)NC(=O)[C@H](Cc1ccccc1)NC(=O)[C@H](CCCCN)NC(=O)[C@H](CO)NC(=O)[C@H](Cc1ccccc1)NC(=O)[C@H](Cc1c[nH]c2ccccc12)NC(=O)[C@H](CCC(N)=O)NC(=O)[C@@H](NC(=O)[C@H](Cc1ccccc1)NC(=O)CCCCCNC(=O)CN1CCN(CC(=O)O)CCN(CC(=O)O)CCN(CC(=O)O)CC1)C(C)C)C(=O)N[C@@H](CCC(=O)O)C(=O)N1CCC[C@H]1C(=O)N[C@@H](CC(=O)O)C(=O)N[C@H](C(=O)N[C@@H](CO)C(=O)N[C@@H](CCC(N)=O)C(=O)N[C@H](C(=O)N[C@@H](CCC(N)=O)C(=O)N[C@@H](CC(=O)O)C(=O)N1CCC[C@H]1C(=O)N[C@@H](CC(N)=O)C(=O)N[C@@H](CC(=O)O)C(=O)N[C@@H](CCC(N)=O)C(=O)N[C@@H](Cc1ccc(O)cc1)C(=O)N[C@@H](CCC(=O)O)C(=O)N1CCC[C@H]1C(=O)N[C@@H](Cc1ccccc1)C(=O)O)C(C)C)C(C)C [copper-64 labelled],,,"C57BL/6 mice, large intestine",added: LPS 3 mg/kg intratracheal,,tissue uptake,4.45 ± 1.1 %ID/g
Oc1ccc2c3c1OC1C(O)C=CC4C(C2)N(CC2CCC2)CCC341 (centres unmarked),,,,,,log k amino protonation,9.2
Cc1cc(-c2ccc3ccccc3c2)nnc1NCCN1CCN(C)CC1,CYP1A2,substrate,recombinant enzyme,"100 nM, 1 h",,remaining compound,81%
Cc1ccc(NS(=O)(=O)c2c(C(=O)N3CCCCCC3)c(C)n(C)c2C)c(Cl)c1,CV-1,,African green monkey cells,"0.046 µM, 60 (unit not given)",,viability,97.4% and 91.9%
CN1Cc2cc(Cl)ccc2-n2c(nnc2C2CCN(c3cccc(F)n3)CC2)C1,,mass spectrometry,"male Sprague-Dawley rat, brain","intravenous, 0.03 mg/kg, 1 h",,concentration,1.12 ng/mL
CC(=O)c1cccc(-c2nc(Nc3ccccc3)nc(N3CCOCC3)n2)c1,CYP1A2,,,10 µM,,inhibition,88%
O=C(/C=C/c1ccc(Br)cc1)c1ccc(NS(=O)(=O)c2ccc(C(F)(F)F)cc2)cc1,Danio rerio,,"wild type, embryos","immersion, up to 120 hpf, exposure from 5 hpf",,LC50,9.12 µM
C[C@@H](c1ccc2nccn2c1)n1nnc2ncc(-c3cn[nH]c3)nc21,"Cytochrome P450 2E1 (CYP2E1, Homo sapiens, UniProt P05181)","enzyme activity, inhibitor","human, liver microsomes",,,IC50,> 50 µM
O=C1CC[C@H]2[C@H]3Cc4ccc(O)c5c4[C@@]2(CCN3CCc2ccccc2)[C@H]1O5,,,,phenolate protonated,,log k amino protonation,9.47
CCN1CCN(Cc2ccc(CNc3nc(N(C)C)nc(N(C)C)c3/N=N/c3ccc(Cl)cc3)cc2)CC1,Plutella xylostella,leaf dipping,,"50 mg/L, 96 h",,mortality,73.3 ± 5.8%
COc1ccc2c3c1O[C@H]1[C@@H](O)C=C[C@H]4[C@@H](C2)N(CCc2ccccc2)CC[C@@]341,,potentiometric titration,"methanol/water, extrapolated to water",,,log K,8.04
O=C1NC2(CC2)COc2ncc(F)cc2[C@H]2COCCN2c2ccn3ncc1c3n2,,,"Sprague-Dawley rat, female, serum","oral, 10 mg/kg/day, 4 weeks daily, end of treatment",,potassium,4.21 ± 0.47 mmol/L

# Excerpt of the above:
Compound,tested on,assay,test system,conditions,scale,endpoint,result
Cc1cc(-c2ccc3ccccc3c2)nnc1NCCN1CCN(C)CC1,CYP1A2,substrate,recombinant enzyme,"100 nM, 1 h",,remaining compound,81%
